Measurements pooled from the literature.
Lines come from different studies, so protocols differ. Values joined by “and” are separate records of one study, mostly repeats; a detail may differ.
T1: itself; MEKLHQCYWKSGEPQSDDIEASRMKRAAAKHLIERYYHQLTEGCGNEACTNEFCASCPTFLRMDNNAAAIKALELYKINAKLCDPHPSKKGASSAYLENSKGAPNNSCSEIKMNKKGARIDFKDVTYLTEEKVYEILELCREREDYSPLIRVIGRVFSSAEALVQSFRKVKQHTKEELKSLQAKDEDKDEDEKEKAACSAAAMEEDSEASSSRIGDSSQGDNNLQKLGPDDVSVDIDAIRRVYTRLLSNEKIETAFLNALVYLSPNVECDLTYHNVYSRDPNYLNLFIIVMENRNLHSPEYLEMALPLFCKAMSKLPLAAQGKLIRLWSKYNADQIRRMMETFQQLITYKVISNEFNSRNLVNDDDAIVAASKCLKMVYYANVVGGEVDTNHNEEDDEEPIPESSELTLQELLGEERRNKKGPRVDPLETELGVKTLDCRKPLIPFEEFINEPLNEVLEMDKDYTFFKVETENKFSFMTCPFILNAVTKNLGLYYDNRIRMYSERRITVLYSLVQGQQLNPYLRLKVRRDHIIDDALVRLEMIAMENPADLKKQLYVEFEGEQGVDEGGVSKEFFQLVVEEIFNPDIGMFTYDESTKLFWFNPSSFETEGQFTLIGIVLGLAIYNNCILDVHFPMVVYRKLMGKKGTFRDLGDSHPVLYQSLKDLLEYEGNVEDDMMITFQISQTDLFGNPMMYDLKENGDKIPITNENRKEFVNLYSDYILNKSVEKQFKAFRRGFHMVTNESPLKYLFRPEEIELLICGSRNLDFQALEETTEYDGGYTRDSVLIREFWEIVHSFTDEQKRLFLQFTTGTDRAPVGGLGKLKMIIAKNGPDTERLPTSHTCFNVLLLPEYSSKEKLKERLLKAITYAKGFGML
T2: itself; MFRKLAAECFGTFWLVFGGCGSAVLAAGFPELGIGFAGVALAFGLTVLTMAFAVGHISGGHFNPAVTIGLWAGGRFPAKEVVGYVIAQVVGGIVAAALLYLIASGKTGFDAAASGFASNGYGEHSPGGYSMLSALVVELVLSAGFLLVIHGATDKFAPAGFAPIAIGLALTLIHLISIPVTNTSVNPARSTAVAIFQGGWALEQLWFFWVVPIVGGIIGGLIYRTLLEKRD
T3: itself; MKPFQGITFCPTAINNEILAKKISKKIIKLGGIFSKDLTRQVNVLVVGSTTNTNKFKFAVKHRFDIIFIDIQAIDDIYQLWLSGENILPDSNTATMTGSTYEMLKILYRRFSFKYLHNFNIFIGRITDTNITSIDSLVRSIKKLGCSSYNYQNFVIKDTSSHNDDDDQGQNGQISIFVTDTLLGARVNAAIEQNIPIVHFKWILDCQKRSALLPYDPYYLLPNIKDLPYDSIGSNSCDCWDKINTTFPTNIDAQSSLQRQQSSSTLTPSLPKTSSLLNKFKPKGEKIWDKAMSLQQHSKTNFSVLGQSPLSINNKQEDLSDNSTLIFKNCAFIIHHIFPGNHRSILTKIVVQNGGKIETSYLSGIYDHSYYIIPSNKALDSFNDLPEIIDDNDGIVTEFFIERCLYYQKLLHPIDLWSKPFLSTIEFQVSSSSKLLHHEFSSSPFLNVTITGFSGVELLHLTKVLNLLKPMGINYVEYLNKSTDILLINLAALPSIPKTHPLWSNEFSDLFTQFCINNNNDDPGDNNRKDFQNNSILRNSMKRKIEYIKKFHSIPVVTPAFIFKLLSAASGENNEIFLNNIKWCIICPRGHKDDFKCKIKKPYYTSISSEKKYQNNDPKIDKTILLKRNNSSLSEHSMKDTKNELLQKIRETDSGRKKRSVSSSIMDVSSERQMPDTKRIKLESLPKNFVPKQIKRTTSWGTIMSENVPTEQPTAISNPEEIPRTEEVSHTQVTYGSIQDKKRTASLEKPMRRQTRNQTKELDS
B1: Grm3 HA-SNAP tagged (Rattus norvegicus, UniProt P31422); chain LGDHNFMRREIKIEGDLVLGGLFPINEKGTGTEECGRINEDRGIQRLEAMLFAIDEINKDNYLLPGVKLGVHILDTCSRDTYALEQSLEFVRASLTKVDEAEYMCPDGSYAIQENIPLLIAGVIGGSYSSVSIQVANLLRLFQIPQISYASTSAKLSDKSRYDYFARTVPPDFYQAKAMAEILRFFNWTYVSTVASEGDYGETGIEAFEQEARLRNICIATAEKVGRSNIRKSYDSVIRELLQKPNARVVVLFMRSDDSRELIAAANRVNASFTWVASDGWGAQESIVKGSEHVAYGAITLELASHPVRQFDRYFQSLNPYNNHRNPWFRDFWEQKFQCSLQNKRNHRQVCDKHLAIDSSNYEQESKIMFVVNAVYAMAHALHKMQRTLCPNTTKLCDAMKILDGKKLYKEYLLKINFTAPFNPNKGADSIVKFDTFGDGMGRYNVFNLQQTGGKYSYLKVGHWAETLSLDVDSIHWSRNSVPTSQCSDPCAPNEMKNMQPGDVCCWICIPCEPYEYLVDEFTCMDCGPGQWPTADLSGCYNLPEDYIKWEDAWAIGPVTIACLGFLCTCIVITVFIKHNNTPLVKASGRELCYILLFGVSLSYCMTFFFIAKPSPVICALRRLGLGTSFAICYSALLTKTNCIARIFDGVKNGAQRPKFISPSSQVFICLGLILVQIVMVSVWLILETPGTRRYTLPEKRETVILKCNVKDSSMLISLTYDVVLVILCTVYAFKTRKCPENFNEAKFIGFTMYTTCIIWLAFLPIFYVTSSDYRVQTTTMCISVSLSGFVVLGCLFAPKVHIVLFQPQKNVVTHRLHLNRFSVSGTATTYSQSSASTYVPTVCNGREVLDSTTSSL
B2: aqpZ 1-231 (Escherichia coli, UniProt P60844); chain MFRKLAAECFGTFWLVFGGCGSAVLAAGFPELGIGFAGVALAFGLTVLTMAFAVGHISGGHFNPAVTIGLWAGGRFPAKEVVGYVIAQVVGGIVAAALLYLIASGKTGFDAAASGFASNGYGEHSPGGYSMLSALVVELVLSAGFLLVIHGATDKFAPAGFAPIAIGLALTLIHLISIPVTNTSVNPARSTAVAIFQGGWALEQLWFFWVVPIVGGIIGGLIYRTLLEKRD
B3: MIF (Homo sapiens, UniProt P14174); chain MPMFIVNTNVPRASVPDGFLSELTQQLAQATGKPPQYIAVHVVPDQLMAFGGSSEPCALCSLHSIGKIGGAQNRSYSKLLCGLLAERLRISPDRVYINYYDMNAANVGWNNSTFA
B4: Dpb11 (Saccharomyces cerevisiae, UniProt P47027); chain MKPFQGITFCPTAINNEILAKKISKKIIKLGGIFSKDLTRQVNVLVVGSTTNTNKFKFAVKHRFDIIFIDIQAIDDIYQLWLSGENILPDSNTATMTGSTYEMLKILYRRFSFKYLHNFNIFIGRITDTNITSIDSLVRSIKKLGCSSYNYQNFVIKDTSSHNDDDDQGQNGQISIFVTDTLLGARVNAAIEQNIPIVHFKWILDCQKRSALLPYDPYYLLPNIKDLPYDSIGSNSCDCWDKINTTFPTNIDAQSSLQRQQSSSTLTPSLPKTSSLLNKFKPKGEKIWDKAMSLQQHSKTNFSVLGQSPLSINNKQEDLSDNSTLIFKNCAFIIHHIFPGNHRSILTKIVVQNGGKIETSYLSGIYDHSYYIIPSNKALDSFNDLPEIIDDNDGIVTEFFIERCLYYQKLLHPIDLWSKPFLSTIEFQVSSSSKLLHHEFSSSPFLNVTITGFSGVELLHLTKVLNLLKPMGINYVEYLNKSTDILLINLAALPSIPKTHPLWSNEFSDLFTQFCINNNNDDPGDNNRKDFQNNSILRNSMKRKIEYIKKFHSIPVVTPAFIFKLLSAASGENNEIFLNNIKWCIICPRGHKDDFKCKIKKPYYTSISSEKKYQNNDPKIDKTILLKRNNSSLSEHSMKDTKNELLQKIRETDSGRKKRSVSSSIMDVSSERQMPDTKRIKLESLPKNFVPKQIKRTTSWGTIMSENVPTEQPTAISNPEEIPRTEEVSHTQVTYGSIQDKKRTASLEKPMRRQTRNQTKELDS
B5: Phl p 7 dimer (Phleum pratense, UniProt O82040); chain MADDMERIFKRFDTNGDGKISLSELTDALRTLGSTSADEVQRMMAEIDTDGDGFIDFNEFISFCNANPGLMKDVAKVF
UniProt Q04410, sequence (whole entry, looked up): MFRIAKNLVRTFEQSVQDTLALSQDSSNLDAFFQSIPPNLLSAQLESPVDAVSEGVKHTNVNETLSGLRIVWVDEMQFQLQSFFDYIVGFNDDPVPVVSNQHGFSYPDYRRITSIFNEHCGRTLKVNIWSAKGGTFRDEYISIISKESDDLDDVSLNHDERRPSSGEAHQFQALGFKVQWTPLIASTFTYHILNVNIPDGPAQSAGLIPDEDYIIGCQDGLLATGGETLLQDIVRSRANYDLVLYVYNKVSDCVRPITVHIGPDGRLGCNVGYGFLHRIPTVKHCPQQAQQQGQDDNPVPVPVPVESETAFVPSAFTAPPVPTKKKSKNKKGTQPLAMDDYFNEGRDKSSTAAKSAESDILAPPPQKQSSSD
UniProt Q47839, sequence (whole entry, looked up): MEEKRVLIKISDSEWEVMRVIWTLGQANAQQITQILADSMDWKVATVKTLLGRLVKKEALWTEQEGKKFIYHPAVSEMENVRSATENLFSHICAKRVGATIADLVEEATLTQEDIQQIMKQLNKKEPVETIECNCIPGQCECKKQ
UniProt P26368, sequence (whole entry, looked up): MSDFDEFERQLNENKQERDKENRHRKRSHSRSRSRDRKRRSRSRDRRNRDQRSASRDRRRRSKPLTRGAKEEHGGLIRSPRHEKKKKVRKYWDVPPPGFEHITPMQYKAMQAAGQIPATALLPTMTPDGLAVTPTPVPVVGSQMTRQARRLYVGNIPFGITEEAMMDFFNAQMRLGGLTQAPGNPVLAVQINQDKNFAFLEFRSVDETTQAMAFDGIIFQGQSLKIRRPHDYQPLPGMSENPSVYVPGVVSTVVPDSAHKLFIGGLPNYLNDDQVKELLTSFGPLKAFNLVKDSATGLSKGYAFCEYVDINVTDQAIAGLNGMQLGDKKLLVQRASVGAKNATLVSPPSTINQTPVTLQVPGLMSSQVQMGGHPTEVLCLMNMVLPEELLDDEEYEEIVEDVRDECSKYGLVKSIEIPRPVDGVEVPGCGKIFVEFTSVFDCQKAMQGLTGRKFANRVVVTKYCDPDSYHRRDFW

Substance | target or system | assay | system | conditions | endpoint | value
B1 (Grm3 HA-SNAP tagged) | itself | single-molecule pulldown | cell lysate | with: agonist 45 min | subunits per oligomer | 2
popZ del102-109 (Caulobacter crescentus) | itself | AUC |  | 25 °C | subunits per oligomer | 6
gene 82 (mycobacteriophage) | itself | cross-linking |  |  | subunits per oligomer | 3
UBE3A (Homo sapiens, UniProt Q05086) | T1, itself | mass photometry |  |  | subunits per oligomer | 3
bioE (Elizabethkingia meningoseptica) | itself | SEC |  |  | subunits per oligomer | 2
atpC fragment (Mycobacterium abscessus) | itself | native gel EMSA |  |  | subunits per oligomer | 2
SIR2 L97A/I101A/K106A/I107A (Paenibacillus sp.) | itself | SEC, AUC |  | mutant | subunits per oligomer | 2
cyanophycin synthetase 2 Q416A/R528G | itself | SEC |  |  | subunits per oligomer | 2
sarcolamban 33 aa peptide (Daphnia pulex) | itself | SDS-PAGE |  |  | subunits per oligomer | 5 and 3
CAMK2D F368A (Homo sapiens) | itself | mass photometry |  |  | subunits per oligomer | 14
Grh1, N-terminal acetylation (yeast, UniProt Q04410) | itself | dynamic light scattering |  |  | subunits per oligomer | 2
ERF fragment (Homo sapiens) | itself | crystal structure |  | reduced, with: DNA | subunits per oligomer | 2
B2 (aqpZ 1-231) | T2, itself | native MS |  |  | subunits per oligomer | 4
popZ fragment (Caulobacter crescentus) | itself | mass photometry |  | 250 nM | subunits per oligomer | 6
comFB (Thermoanaerobacter brockii) | itself | mass photometry |  | with: c-di-GMP 0.5 mM | subunits per oligomer | 2
CLTC/CLTA triskelion (Bos taurus) | itself | light scattering |  |  | subunits per oligomer | 3.65
B3 (MIF) | itself | native MS |  | not purified | subunits per oligomer | 3
PopZ del102-128 (Caulobacter crescentus) | itself | AUC |  | 25 °C | subunits per oligomer | 6
B4 (Dpb11) | T3, itself | mass photometry |  |  | subunits per oligomer | 2
CAMK2D full length holoenzyme (Homo sapiens) | itself | mass photometry |  |  | subunits per oligomer | 12
Piezo1 M2493A/F2494A (Mus musculus) | itself | SEC | not purified, clarified lysate |  | subunits per oligomer | 3
P2-RANTES fragment | itself | AUC |  | velocity sedimentation | subunits per oligomer | 2
aceF catalytic domain , homotrimer (Escherichia coli) | itself | SEC |  |  | subunits per oligomer | 3

Substance | target or system | assay | system | conditions | endpoint | value
UDP-2,3-diacylglucosamine hydrolase D225A (Caulobacter crescentus) | itself | SEC |  |  | subunits per oligomer | 2
comFB (Treponema denticola) | itself | mass photometry |  | without c-di-GMP | subunits per oligomer | 2
yjoB fragment (Bacillus subtilis) | itself | crystal structure |  |  | subunits per oligomer | 12
clcA fragment C85A/H234C/F219A/I220A/I223A/I227A (Escherichia coli) | itself | SEC |  |  | subunits per oligomer | 2
P2RX3 fragment (Canis lupus) | itself | cryo-EM |  |  | subunits per oligomer | 3
DMD fragment (Homo sapiens) | itself | SEC-MALS |  |  | subunits per oligomer | 2
HARP fragment (Hydrogenobacter thermophilus) | itself | cryo-EM |  |  | subunits per oligomer | 12
CUUCACCUA (ssRNA) | U2AF2 148-342 (Homo sapiens, UniProt P26368) | sequencing of bound RNA | RNA | motif only | Kd | 1150 nM
popZ (Caulobacter crescentus) | itself | mass photometry |  |  | subunits per oligomer | 12 and 18
Diaph1 FH1-FH2-C, SNAP-surface-649 dye label (Mus musculus) | itself | single-molecule photobleaching step counting |  |  | subunits per oligomer | 2
CRYAB αB-crystallin del54-61 (Homo sapiens) | itself | SEC-MALS |  |  | subunits per oligomer | 20 subunits
Cap10 (Rhizobiales) | itself | crystal structure |  |  | subunits per oligomer | 2
B5 (Phl p 7 dimer) | itself | SEC |  |  | subunits per oligomer | 2
Maackia amurensis seed lectin (Maackia amurensis) | itself | SEC-MALS |  |  | subunits per oligomer | 4
LECA (Pisum sativum) | itself | SEC-SAXS |  |  | subunits per oligomer | 2
sodN mature H1A (Streptomyces coelicolor) | itself | SEC |  |  | subunits per oligomer | 6
IgM (Homo sapiens) | itself | negative-stain electron microscopy |  |  | subunits per oligomer | 5
ALD1 fragment (Toxoplasma gondii) | itself | dynamic light scattering |  |  | subunits per oligomer | 4
copY (Enterococcus hirae, UniProt Q47839) | itself | AUC |  |  | subunits per oligomer | 2
concanavalin A | itself | native MS |  |  | subunits per oligomer | 2
CDH3 ectodomain, soluble (Xenopus) | itself | AUC |  | monomer-dimer fit | subunits per oligomer | 2
ftsZ F224M (Spiroplasma melliferum) | itself | crystal structure |  | 10 mg/mL, with: GDP | subunits per oligomer | 2

For quick reference, copied from above:
Substance | target or system | assay | system | conditions | endpoint | value
UDP-2,3-diacylglucosamine hydrolase D225A (Caulobacter crescentus) | itself | SEC |  |  | subunits per oligomer | 2
comFB (Treponema denticola) | itself | mass photometry |  | without c-di-GMP | subunits per oligomer | 2
yjoB fragment (Bacillus subtilis) | itself | crystal structure |  |  | subunits per oligomer | 12
clcA fragment C85A/H234C/F219A/I220A/I223A/I227A (Escherichia coli) | itself | SEC |  |  | subunits per oligomer | 2
P2RX3 fragment (Canis lupus) | itself | cryo-EM |  |  | subunits per oligomer | 3
